# Experimental data pooled from the literature.
# Every numbered part comes from another study and shows a few of its results, in no order. “And” joins repeats or separate records; there may be more than shown.
# UniProt Q9Y4K4, sequence (whole entry, looked up): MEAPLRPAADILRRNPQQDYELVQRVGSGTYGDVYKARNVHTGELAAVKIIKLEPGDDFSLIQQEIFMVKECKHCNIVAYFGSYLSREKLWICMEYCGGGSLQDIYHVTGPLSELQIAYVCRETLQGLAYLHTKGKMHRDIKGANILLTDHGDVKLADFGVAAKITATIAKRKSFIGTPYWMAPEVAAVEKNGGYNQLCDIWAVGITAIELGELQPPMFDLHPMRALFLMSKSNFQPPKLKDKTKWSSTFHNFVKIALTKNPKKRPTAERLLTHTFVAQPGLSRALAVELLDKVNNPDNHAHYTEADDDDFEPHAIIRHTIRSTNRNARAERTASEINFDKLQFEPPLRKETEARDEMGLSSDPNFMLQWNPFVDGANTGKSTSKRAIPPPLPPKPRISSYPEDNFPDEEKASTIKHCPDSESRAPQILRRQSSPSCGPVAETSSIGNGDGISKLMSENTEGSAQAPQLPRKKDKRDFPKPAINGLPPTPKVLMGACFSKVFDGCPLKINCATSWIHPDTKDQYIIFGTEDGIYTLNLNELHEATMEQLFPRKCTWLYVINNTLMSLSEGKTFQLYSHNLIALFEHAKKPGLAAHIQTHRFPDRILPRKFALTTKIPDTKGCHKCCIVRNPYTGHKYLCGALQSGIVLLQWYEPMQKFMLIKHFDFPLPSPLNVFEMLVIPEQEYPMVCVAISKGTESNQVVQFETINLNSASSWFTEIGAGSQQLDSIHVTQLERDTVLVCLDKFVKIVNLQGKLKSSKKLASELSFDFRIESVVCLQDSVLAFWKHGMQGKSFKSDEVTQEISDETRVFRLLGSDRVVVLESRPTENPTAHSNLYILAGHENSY
# UniProt O60674, sequence (whole entry, unmodified, looked up): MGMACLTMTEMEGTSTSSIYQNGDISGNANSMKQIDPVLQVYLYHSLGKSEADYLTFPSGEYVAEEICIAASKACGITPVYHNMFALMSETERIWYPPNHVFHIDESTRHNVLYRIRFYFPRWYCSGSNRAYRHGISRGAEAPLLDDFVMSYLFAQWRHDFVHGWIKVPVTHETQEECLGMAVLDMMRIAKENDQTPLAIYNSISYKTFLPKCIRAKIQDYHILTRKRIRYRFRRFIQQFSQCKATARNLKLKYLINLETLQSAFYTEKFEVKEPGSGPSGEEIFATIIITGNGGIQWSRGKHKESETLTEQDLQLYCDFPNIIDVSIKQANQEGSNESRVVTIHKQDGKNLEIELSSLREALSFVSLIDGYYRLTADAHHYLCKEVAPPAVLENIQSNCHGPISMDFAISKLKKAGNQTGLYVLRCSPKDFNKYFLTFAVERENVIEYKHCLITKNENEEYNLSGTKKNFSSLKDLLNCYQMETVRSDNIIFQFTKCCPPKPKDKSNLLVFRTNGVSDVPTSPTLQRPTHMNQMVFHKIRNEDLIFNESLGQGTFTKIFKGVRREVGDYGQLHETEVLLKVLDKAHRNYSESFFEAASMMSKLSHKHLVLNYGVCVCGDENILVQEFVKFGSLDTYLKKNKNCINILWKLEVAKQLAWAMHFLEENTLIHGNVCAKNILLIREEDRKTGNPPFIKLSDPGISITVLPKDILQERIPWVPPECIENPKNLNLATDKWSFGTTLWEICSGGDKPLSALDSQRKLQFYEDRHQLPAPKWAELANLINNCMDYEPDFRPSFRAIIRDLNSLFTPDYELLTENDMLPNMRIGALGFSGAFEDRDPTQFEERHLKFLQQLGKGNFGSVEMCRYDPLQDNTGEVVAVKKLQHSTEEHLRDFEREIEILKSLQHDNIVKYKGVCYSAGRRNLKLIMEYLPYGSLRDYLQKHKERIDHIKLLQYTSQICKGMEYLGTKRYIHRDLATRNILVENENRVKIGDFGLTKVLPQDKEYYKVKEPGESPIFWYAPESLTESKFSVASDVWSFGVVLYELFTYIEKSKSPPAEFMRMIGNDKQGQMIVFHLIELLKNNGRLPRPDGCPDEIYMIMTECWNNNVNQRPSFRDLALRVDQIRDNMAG

# Series 1 — method: NanoBRET; tested at: 1 µM
# SMILES: COc1cc(-c2nc3ccc(C(=O)NCCCN(C)C)cc3n2C2CCC2)cc(OC)c1OC
target,target occupancy
"Serine/threonine-protein kinase TNNI3K (TNNI3K, Homo sapiens, UniProt Q59H18)",-0.19%
"Serine/threonine-protein kinase PLK3 (PLK3, Homo sapiens, UniProt Q9H4B4)",-4.38%
"Tyrosine-protein kinase Mer (MERTK, Homo sapiens, UniProt Q12866)",1.02%
"Serine/threonine-protein kinase 35 (STK35, Homo sapiens, UniProt Q8TDR2)",2.43%
"Activated CDC42 kinase 1 (TNK2, Homo sapiens, UniProt Q07912)",-1.11%
"Cyclin-dependent kinase 6, with cyclin D1 (CDK6, Homo sapiens, UniProt Q00534)",-0.69%
"Dual specificity protein kinase CLK2 (CLK2, Homo sapiens, UniProt P49760)",-0.35%
"Mitogen-activated protein kinase kinase kinase kinase 5 (MAP4K5, Homo sapiens, UniProt Q9Y4K4)",-0.21%
"Serine/threonine-protein kinase Sgk1 (SGK1, Homo sapiens, UniProt O00141)",1.66%
"Tyrosine-protein kinase JAK2 (JAK2, Homo sapiens, UniProt O60674, V617F)",13.7%
"Protein kinase C epsilon type (PRKCE, Homo sapiens, UniProt Q02156)",1.06%
"Serine/threonine-protein kinase DCLK3 (DCLK3, Homo sapiens, UniProt Q9C098)",5.88%
"Serine/threonine-protein kinase B-raf (BRAF, Homo sapiens, UniProt P15056, V600E)",-6.98%
"Serine/threonine-protein kinase LATS2 (LATS2, Homo sapiens, UniProt Q9NRM7)",-0.96%

# Series 2
# Compound: CN(C1COC1)C(C)(C)/C=C(\C#N)C(=O)N1CCC[C@H]1Cn1nc(-c2ccc(Oc3ccccc3)cc2F)c2c(N)ncnc21
target,observed,tested at,notes,inhibition [%]
"Tyrosine-protein kinase ABL2 (ABL2, Homo sapiens, UniProt P42684)",kinase activity,0.1 µM,,1
"Mitogen-activated protein kinase kinase kinase kinase 5 (MAP4K5, Homo sapiens, UniProt Q9Y4K4)",kinase activity,0.1 µM,,1
"Vascular endothelial growth factor receptor 1 (FLT1, Homo sapiens, UniProt P17948)",kinase activity,0.1 µM,,1
"Proto-oncogene tyrosine-protein kinase Src (SRC, Homo sapiens, UniProt P12931)",kinase activity,1 µM,,38
"Cyclin-dependent kinase 9, with cyclin T1 (CDK9, Homo sapiens, UniProt P50750)",kinase activity,1 µM,,-3
NDRG1,,0.1 µM,mean,3
"Serine/threonine-protein kinase SIK2 (SIK2, Homo sapiens, UniProt Q9H0K1)",kinase activity,1 µM,,0
"Protein kinase C alpha type (PRKCA, Homo sapiens, UniProt P17252)",kinase activity,0.1 µM,,-4
"Aurora kinase A (AURKA, Homo sapiens, UniProt O14965)",kinase activity,1 µM,,11
"Calcium/calmodulin-dependent protein kinase type 1 (CAMK1, Homo sapiens, UniProt Q14012)",kinase activity,1 µM,,2
"Receptor-interacting serine/threonine-protein kinase 2 (RIPK2, Homo sapiens, UniProt O43353)",kinase activity,0.1 µM,,64
"Protein kinase C iota type (PRKCI, Homo sapiens, UniProt P41743)",kinase activity,1 µM,,-12
"Epidermal growth factor receptor (EGFR, Homo sapiens, UniProt P00533)",kinase activity,1 µM,,21
"Casein kinase I isoform gamma-2 (CSNK1G2, Homo sapiens, UniProt P78368)",kinase activity,0.1 µM,,6
"Mitogen-activated protein kinase 10 (MAPK10, Homo sapiens, UniProt P53779)",kinase activity,1 µM,,-6

# Series 3 — time: 6 days
# Compound: Cc1ncsc1-c1ccc(C(CO)NC(=O)C2CC(O)CN2C(=O)C(C(C)C)n2cc(-c3ccc(COc4c(-c5c(C)c(F)cc6[nH]ncc56)c(C5CC5)cc5c(N6CC7CC6CN7)nc(OC6CCOCC6)nc45)cc3)nn2)cc1 (stereo not drawn)
cell line,observed,method,tested at,baseline,viability
COLO 320,cell growth or viability,ATP luminescence,300 pM,,86.2% and 83.1% and 89% and 96%
PaTu 8902,cell growth or viability,ATP luminescence,0.1 µM,,84.6% and 90.2% and 88.6% and 94.8%
PSN1,cell growth or viability,ATP luminescence,30 nM,,91.1% and 117% and 94% and 84.9%
HCT-116,cell growth or viability,ATP luminescence,3 µM,,8.98% and 6.62% and 6.35% and 7.42%
LCLC-97TM1,cell growth or viability,ATP luminescence,1 nM,,107% and 110%
LCLC-97TM1,cell growth or viability,ATP luminescence,10 nM,,99.9% and 87.2% and 89.9% and 102%
AsPC-1,,CellTiter-Glo,10 µM,DMSO,3.55% and 3.68% and 3.93%

# Series 4 — observed: enzyme activity; action: inhibitor; method: fluorescence
# SMILES: Cc1nc2c([nH]1)c(=O)[nH]c(=S)n2Cc1cccc(OC/C(=C/F)CN)c1
# MPO: Myeloperoxidase (MPO, Homo sapiens, UniProt P05164)
# UniProt P05164, sequence (whole entry, looked up): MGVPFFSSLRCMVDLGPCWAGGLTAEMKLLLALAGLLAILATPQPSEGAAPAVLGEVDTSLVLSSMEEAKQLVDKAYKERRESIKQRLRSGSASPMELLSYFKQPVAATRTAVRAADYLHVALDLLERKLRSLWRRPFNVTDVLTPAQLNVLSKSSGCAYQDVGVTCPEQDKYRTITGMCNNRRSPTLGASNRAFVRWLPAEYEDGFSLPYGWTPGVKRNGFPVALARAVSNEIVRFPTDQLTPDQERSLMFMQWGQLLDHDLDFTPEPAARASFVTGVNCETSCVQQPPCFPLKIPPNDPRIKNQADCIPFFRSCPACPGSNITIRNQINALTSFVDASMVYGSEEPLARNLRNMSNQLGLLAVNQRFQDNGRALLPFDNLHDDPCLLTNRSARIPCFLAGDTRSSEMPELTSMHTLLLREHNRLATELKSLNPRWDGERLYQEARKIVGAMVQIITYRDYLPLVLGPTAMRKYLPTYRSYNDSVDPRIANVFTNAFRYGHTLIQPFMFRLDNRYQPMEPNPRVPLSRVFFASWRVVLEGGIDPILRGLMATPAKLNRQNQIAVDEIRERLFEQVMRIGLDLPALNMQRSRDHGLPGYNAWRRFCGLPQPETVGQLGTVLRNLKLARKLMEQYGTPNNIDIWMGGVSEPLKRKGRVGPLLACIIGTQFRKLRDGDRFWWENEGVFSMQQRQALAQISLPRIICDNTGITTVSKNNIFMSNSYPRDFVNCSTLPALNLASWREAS
# AOC3: Amine oxidase [copper-containing] 3 (AOC3, Homo sapiens, UniProt Q16853)
# UniProt Q16853, sequence (whole entry, looked up): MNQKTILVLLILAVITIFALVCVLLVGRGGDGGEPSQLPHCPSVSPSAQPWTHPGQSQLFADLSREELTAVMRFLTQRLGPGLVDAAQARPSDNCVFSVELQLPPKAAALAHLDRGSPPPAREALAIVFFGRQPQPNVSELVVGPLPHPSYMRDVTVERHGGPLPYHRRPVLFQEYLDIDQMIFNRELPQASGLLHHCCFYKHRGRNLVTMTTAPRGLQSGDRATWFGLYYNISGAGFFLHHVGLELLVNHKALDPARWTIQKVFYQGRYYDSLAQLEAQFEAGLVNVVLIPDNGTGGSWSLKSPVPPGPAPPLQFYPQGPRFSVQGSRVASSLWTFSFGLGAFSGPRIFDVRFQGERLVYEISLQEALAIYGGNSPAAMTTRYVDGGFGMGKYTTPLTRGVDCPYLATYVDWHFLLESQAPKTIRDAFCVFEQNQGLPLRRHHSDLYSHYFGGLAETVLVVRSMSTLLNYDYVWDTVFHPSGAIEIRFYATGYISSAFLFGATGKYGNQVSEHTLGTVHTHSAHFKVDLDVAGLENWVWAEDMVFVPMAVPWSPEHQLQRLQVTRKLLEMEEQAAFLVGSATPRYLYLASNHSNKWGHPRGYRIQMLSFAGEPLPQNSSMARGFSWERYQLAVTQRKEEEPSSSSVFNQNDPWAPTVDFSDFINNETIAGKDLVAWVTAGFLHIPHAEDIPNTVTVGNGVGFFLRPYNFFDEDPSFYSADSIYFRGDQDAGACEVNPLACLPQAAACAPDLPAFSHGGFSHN
target,tested at,inhibition
MPO,500 pM,-13.2%
MPO,1.5 nM,-8.21%
AOC3,41.2 nM,63.6% and 64.8% and 75.5% and 78.1%
MPO,30 µM,99.2%
AOC3,30 µM,103% and 101% and 100%
MPO,0.1235 µM,12.6%
AOC3,10 µM,101% and 100%
AOC3,0.3704 µM,94.9% and 98.2% and 98.5%

# Series 5 — observed: thermal unfolding; method: differential scanning fluorimetry; tested at: 5.5 µM; direction: higher = more unfolded
# SMILES: C[C@@H]1CN(c2ccc(-c3cc(C(=O)NCCOCCOCCOCCOCCNC(=O)Cn4cc(-c5[nH]cc(C(=O)N[C@@H](CC(N)=O)c6ccc(F)c(Cl)c6)c5-c5ccc(Cl)cc5F)cn4)ccc3F)cc2NC(=O)c2c[nH]c(=O)cc2C(F)(F)F)C[C@H](C)N1C
# DCAF1: DDB1- and CUL4-associated factor 1 (DCAF1, Homo sapiens, UniProt Q9Y4B6)
# UniProt Q9Y4B6, sequence (whole entry, looked up): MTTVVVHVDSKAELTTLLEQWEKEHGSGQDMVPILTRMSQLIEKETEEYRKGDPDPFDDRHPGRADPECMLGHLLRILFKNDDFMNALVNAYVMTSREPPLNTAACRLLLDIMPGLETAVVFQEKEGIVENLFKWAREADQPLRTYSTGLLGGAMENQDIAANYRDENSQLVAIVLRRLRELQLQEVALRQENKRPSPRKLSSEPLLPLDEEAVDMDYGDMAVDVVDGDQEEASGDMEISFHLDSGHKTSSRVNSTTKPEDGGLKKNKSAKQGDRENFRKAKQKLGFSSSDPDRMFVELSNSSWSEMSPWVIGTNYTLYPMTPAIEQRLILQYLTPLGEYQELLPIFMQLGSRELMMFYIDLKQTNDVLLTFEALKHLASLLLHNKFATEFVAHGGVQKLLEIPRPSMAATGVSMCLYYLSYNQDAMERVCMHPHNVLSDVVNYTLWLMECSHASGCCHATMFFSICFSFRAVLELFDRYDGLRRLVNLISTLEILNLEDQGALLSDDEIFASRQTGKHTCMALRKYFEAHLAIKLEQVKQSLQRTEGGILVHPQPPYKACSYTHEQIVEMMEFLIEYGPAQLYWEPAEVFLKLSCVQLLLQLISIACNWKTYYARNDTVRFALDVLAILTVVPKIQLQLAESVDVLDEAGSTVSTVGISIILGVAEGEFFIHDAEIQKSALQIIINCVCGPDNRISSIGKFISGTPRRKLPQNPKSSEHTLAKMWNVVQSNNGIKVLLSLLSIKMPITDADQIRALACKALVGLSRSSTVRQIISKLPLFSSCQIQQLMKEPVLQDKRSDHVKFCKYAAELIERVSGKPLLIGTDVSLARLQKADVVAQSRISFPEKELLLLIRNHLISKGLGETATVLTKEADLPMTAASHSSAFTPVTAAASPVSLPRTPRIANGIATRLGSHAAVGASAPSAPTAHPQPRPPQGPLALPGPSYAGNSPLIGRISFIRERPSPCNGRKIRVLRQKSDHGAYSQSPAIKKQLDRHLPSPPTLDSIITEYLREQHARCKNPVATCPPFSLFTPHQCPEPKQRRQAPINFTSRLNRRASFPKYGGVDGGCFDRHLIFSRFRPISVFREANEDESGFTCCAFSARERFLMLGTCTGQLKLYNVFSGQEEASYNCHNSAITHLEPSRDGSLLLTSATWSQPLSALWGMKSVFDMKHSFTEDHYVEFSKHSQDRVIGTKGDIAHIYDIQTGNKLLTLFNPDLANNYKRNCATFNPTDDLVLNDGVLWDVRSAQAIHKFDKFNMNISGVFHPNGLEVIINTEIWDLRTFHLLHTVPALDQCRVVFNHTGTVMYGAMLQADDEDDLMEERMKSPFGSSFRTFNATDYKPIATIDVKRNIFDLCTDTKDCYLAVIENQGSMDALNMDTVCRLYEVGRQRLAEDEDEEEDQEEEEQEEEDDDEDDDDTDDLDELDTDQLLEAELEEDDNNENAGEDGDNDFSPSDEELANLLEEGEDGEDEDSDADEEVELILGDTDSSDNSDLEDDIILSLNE
target,temperature,SYPRO Orange fluorescence
DCAF1,53.01 °C,16600 a.u.
DCAF1,81.41 °C,43000 a.u.
DCAF1,87.01 °C,37800 a.u.
DCAF1,60.41 °C,40000 a.u.
DCAF1,81.61 °C,42800 a.u.
DCAF1,84.41 °C,40400 a.u.
"WD repeat-containing protein 5 (WDR5, Homo sapiens, UniProt P61964)",31.4 °C,14800 a.u.

# Series 6 — tested at: 1 µM
# SMILES: CCC1(c2cccc(-c3cn(C)nc3C)c2)C2=C(Nc3n[nH]cc31)C(F)C(C)(C)CC2=O (single isomer, unassigned)
target,observed,method,baseline,remaining binding [%]
"Cyclin-dependent kinase 18 (CDK18, Homo sapiens, UniProt Q07002)",binding,competition with immobilised ligand,,100
"Serine/threonine-protein kinase N1 (PKN1, Homo sapiens, UniProt Q16512)",binding,competition with immobilised ligand,,100
"ALK tyrosine kinase receptor (ALK, Homo sapiens, UniProt Q9UM73, L1196M)",kinase binding,KINOMEscan,DMSO control,58
"Hepatocyte growth factor receptor (MET, Homo sapiens, UniProt P08581, Y1235D)",binding,competition with immobilised ligand,,100
"Angiopoietin-1 receptor (TEK, Homo sapiens, UniProt Q02763)",binding,competition with immobilised ligand,,100
"Mitogen-activated protein kinase kinase kinase 1 (MAP3K1, Homo sapiens, UniProt Q13233)",kinase binding,KINOMEscan,DMSO control,81
"Serine/threonine-protein kinase MRCK beta (CDC42BPB, Homo sapiens, UniProt Q9Y5S2)",kinase binding,KINOMEscan,DMSO control,100
"Homeodomain-interacting protein kinase 2 (HIPK2, Homo sapiens, UniProt Q9H2X6)",kinase binding,KINOMEscan,DMSO control,75
"Serine/threonine-protein kinase Chk1 (CHEK1, Homo sapiens, UniProt O14757)",binding,competition with immobilised ligand,,83
"Microtubule-associated serine/threonine-protein kinase 1 (MAST1, Homo sapiens, UniProt Q9Y2H9)",kinase binding,KINOMEscan,DMSO control,100
"Serine/threonine-protein kinase D3 (PRKD3, Homo sapiens, UniProt O94806)",binding,competition with immobilised ligand,,77
"Cyclin-dependent kinase 11A (CDK11A, Homo sapiens, UniProt Q9UQ88)",binding,competition with immobilised ligand,,100
"Ribosomal protein S6 kinase alpha-2, C-terminal kinase domain (RPS6KA2, Homo sapiens, UniProt Q15349)",kinase binding,KINOMEscan,DMSO control,99
"Phosphatidylinositol 4-phosphate 5-kinase type-1 gamma (PIP5K1C, Homo sapiens, UniProt O60331)",kinase binding,KINOMEscan,DMSO control,100

# Further values, each from its own experiment
SMILES,target,observed,action,cell line,added,endpoint,value
COc1cc(C(=O)OCCCN2CCCN(CCCOC(=O)c3cc(OC)c(OC)c(OCc4ccc([N+](=O)[O-])cc4)c3)CC2)cc(OC)c1OC,"Equilibrative nucleoside transporter 2 (Homo sapiens, UniProt Q14542)",adenosine uptake,inhibitor,Xenopus laevis oocytes,[3H]adenosine,Hill slope,-0.235

# Some of these lines once more (series 1):
target,target occupancy
"Serine/threonine-protein kinase PLK3 (PLK3, Homo sapiens, UniProt Q9H4B4)",-4.38%
"Tyrosine-protein kinase Mer (MERTK, Homo sapiens, UniProt Q12866)",1.02%
"Serine/threonine-protein kinase 35 (STK35, Homo sapiens, UniProt Q8TDR2)",2.43%
"Activated CDC42 kinase 1 (TNK2, Homo sapiens, UniProt Q07912)",-1.11%
"Cyclin-dependent kinase 6, with cyclin D1 (CDK6, Homo sapiens, UniProt Q00534)",-0.69%
